Measurements pooled from the literature.
Protocols differ between the studies behind these lines. Values joined by “and” are separate records of one study, mostly repeats; a detail may differ. ± gives the spread as reported.
TDP1: Tyrosyl-DNA phosphodiesterase 1 (TDP1, Homo sapiens, UniProt Q9NUW8)
UniProt Q9NUW8, sequence (whole entry, looked up): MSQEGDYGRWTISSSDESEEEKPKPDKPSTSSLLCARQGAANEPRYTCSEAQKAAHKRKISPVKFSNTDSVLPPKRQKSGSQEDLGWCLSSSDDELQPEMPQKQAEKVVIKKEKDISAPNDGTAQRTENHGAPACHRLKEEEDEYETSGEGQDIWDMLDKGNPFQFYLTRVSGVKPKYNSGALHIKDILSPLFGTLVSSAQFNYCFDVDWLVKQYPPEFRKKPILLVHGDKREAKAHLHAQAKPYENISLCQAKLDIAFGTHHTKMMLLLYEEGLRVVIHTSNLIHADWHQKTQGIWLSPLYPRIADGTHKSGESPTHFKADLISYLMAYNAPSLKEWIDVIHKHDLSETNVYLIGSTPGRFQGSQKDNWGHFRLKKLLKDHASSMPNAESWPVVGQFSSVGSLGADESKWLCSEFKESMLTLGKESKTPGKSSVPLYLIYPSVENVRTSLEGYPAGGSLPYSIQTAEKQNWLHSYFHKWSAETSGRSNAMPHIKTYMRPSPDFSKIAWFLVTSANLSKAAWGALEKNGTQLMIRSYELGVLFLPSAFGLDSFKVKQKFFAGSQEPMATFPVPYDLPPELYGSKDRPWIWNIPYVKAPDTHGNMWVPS

`CC(C=NOCc1ccc(-c2nc3cc(-c4ccccc4)ccn3c2Nc2ccc(C(=O)O)cc2)cc1)=Cc1cccc([N+](=O)[O-])c1O` (mixture of isomers) gave an inhibition of 76.4% (TDP1; enzyme activity, inhibitor; 100 µM, unpurified compound).
`COCCOCCOCCNC(=O)Cc1cc(CC(=O)N[C@H]2C[C@H]3C(=O)Nc4cc(OCCOCCOCCOC)cc(n4)C(=O)N4CCC[C@H]4C(=O)Nc4cc(OCCOCCOCCOC)cc(n4)C(=O)N4CCC[C@H]4C(=O)Nc4cc(OCCOCCOCCOC)cc(n4)C(=O)N3C2)cc(CC(=O)N[C@H]2C[C@H]3C(=O)Nc4cc(OCCOCCOCCOC)cc(n4)C(=O)N4CCC[C@H]4C(=O)Nc4cc(OCCOCCOCCOC)cc(n4)C(=O)N4CCC[C@H]4C(=O)Nc4cc(OCCOCCOCCOC)cc(n4)C(=O)N3C2)c1` gave a TΔS of 5.856 ± 0.0239 kcal/mol (anion binding, ITC; water/acetonitrile 95 vol% (98.2 mol%); 298 K, with: sodium sulfate).
`O=C(O)c1ccc(Nc2c(-c3ccc(CON=Cc4ccc(OC(=O)c5ccc6c(c5)OCO6)cc4)cc3)nc3cc(-c4ccccc4)ccn23)cc1` (mixture of isomers) gave an inhibition of 72.7% (TDP1; enzyme activity, inhibitor; 100 µM, unpurified compound).
The luciferase induction of `CC(C)C[C@H](NC(=O)CNC(=O)[C@H](CCC(N)=O)NC(=O)[C@H](CC(C)C)NC(=O)[C@H](CC(C)C)NC(=O)[C@H](CCCNC(=N)N)NC(=O)[C@H](CCC(N)=O)NC(=O)[C@H](CC(C)C)NC(=O)[C@H](CCCNC(=N)N)NC(=O)[C@H](C)NC(=O)CNC(=O)[C@H](CCC(=O)O)NC(=O)[C@H](CCCNC(=N)N)NC(=O)[C@H](CC(C)C)NC(=O)[C@H](CCCNC(=N)N)NC(=O)[C@H](CO)NC(=O)[C@H](CC(C)C)NC(=O)[C@H](CCC(=O)O)NC(=O)[C@H](CO)NC(=O)[C@@H](NC(=O)[C@H](Cc1ccccc1)NC(=O)[C@@H](NC(=O)CNC(=O)[C@H](CC(=O)O)NC(=O)C(C)(C)NC(=O)[C@@H](N)Cc1c[nH]cn1)[C@@H](C)O)[C@@H](C)O)C(=O)N[C@@H](CC(C)C)C(=O)N[C@@H](CCC(N)=O)C(=O)NCC(=O)N[C@@H](CC(C)C)C(=O)N[C@H](C(=O)NCC(=O)N[C@@H](CCCCNC(=O)COCCOCCNC(=O)COCCOCCNC(=O)CC[C@H](NC(=O)CCCCCCCCCCCCCCCCC(=O)O)C(=O)O)C(N)=O)C(C)C` is reported as 20 fold (cAMP reporter gene; CRE-Luc mice, pancreas homogenate ex vivo; sc, 300 nmol/kg, 6 h, highest dose; baseline: baseline).
For `CCCC[N+]1=c2cc3c4cc2[O][Mn-2]1(=[C]=O)(=[C]=O)(=[C]=O)[n+]1ccc(cc1)C(=O)Nc1ccccc1NC(=O)c1cc[n+](cc1)[Mn-2](=[C]=O)(=[C]=O)(=[C]=O)([O]3)[N+]=4CCCC`, “apparent CO release rate constant” read 0.00212 s⁻¹ (myoglobin; equine heart myoglobin; with: green LED light).
Under “second order rate constant”, `O=C(O)CN1CCN(CC(=O)O)CCN(CC(=O)NCCOCCOCCOCCOCCOCCOCCOCCOCCOCCOCCOCCNC(=O)CCCC(=O)Nc2ccc(-c3nnc(-c4ccccn4)nn3)nc2)CCN(CC(=O)O)CC1` is recorded as 73000 ± 5500 M⁻¹ s⁻¹ (DPBS; 37 °C, with: TCO-PEG4).
For `COc1cc2c(NC3CCN(C(C)C)CC3)cc(N3CCOCC3)nc2cc1OCCCN1CCCC1`, “log2 fold change” read -0.0344 (TMT proteomics, item: YWHAZ; 5xFAD mice, hippocampus; dose not given; baseline: untreated 5xFAD mice).
For `Cc1cnc2nc1Nc1cccc(c1)COC/C=C/COCc1cc(ccc1OCCN1CCOCC1)N2`, the reticulocytes was 11.2% and 11.4% and 11.9% and 10.4% and 9.57% (BALB/c mice rhEPO-induced polycythemia; 100 mg/kg).
With `CC[C@H](C)[C@@H](C(=O)N[C@@H](CC(C)C)C(=O)N[C@@H](CO)C(=O)N[C@@H](CO)C(=O)N[C@H](C(=O)N[C@@H](CCC(=O)O)C(=O)N[C@H](C(=O)NCC(=O)N[C@@H](CO)C(=O)N[C@@H](CCCN)C(=O)N[C@H](C(=O)N1C[C@H](O)C[C@H]1C(N)=O)[C@@H](C)O)C(C)C)[C@@H](C)O)N(C)C(=O)[C@H](C)NC(=O)CN(C)C(=O)[C@H](Cc1ccccc1)NC(=O)[C@H](CO)NC(=O)[C@H](CO)NC(=O)[C@H](CCCNC(=N)N)NC(=O)[C@@H](NC(=O)[C@H](CC(C)C)NC(=O)[C@H](Cc1ccccc1)NC(=O)[C@H](Cc1c[nH]cn1)NC(=O)[C@H](C)NC(=O)[C@H](CC(C)C)NC(=O)[C@H](CCCNC(=N)N)NC(=O)[C@H](CCC(=O)O)NC(=O)[C@@H](NC(=O)[C@H](C)NC(=O)[C@@H]1CSSC[C@H](NC(=O)[C@H](CCCNC(=N)N)NC(=O)CC[C@H](NC(=O)CCCCCCCCCCCCCCCCCCC(=O)O)C(=O)O)C(=O)NCC(=O)N[C@@H]([C@@H](C)O)C(=O)N[C@@H](C)C(=O)N[C@@H]([C@@H](C)O)C(=O)N1)[C@@H](C)O)[C@@H](C)O` the food intake was 80.3 ± 2.7% (male Sprague-Dawley rats; subcutaneous, 30 nmol/kg single dose, 24 h; baseline: vehicle).
The spleen weight of `CC(C)(C)NCC(SS(=O)(=O)O)c1ccccc1` (stereo not shown) is reported as 0.13 g and 0.14 g and 0.15 g (mouse infected with Schistosoma mansoni; 600 mg/kg, day 21 post-infection dosing once, perfusion day 52 post-infection).
The tumour regression of `COc1c(Cl)cccc1Nc1c(-c2ccncc2C#C[C@@]2(C)CCCN2C(=O)/C=C/CN(C)C)[nH]c2c1C(=O)NCC2` is reported as 100% (female NOD/SCID mouse, PDX; 50 mg/kg once daily, 21 days, HER2 YVMA).
For `COc1ccc(C2CC(Nc3ccc(-c4ccc(NC5=NOC(c6ccc(OC)cc6)C5)cc4)cc3)=NO2)cc1` (stereo not shown), the inhibition was 27.8% (carrageenan paw oedema; albino rat; oral, 25 mg/kg, 3 h).
For `O=[N][Fe]1([N]=O)[S](CCO)[Fe]([N]=O)([N]=O)[S]1CCO`, the body weight was 40.5 ± 6.32 g (aged C57BL/6JNarl mice on Western diet; po, 2.65 mg/kg daily, 16 weeks).
The food intake of `CC[C@H](C)[C@@H](C(=O)N[C@@H](CC(C)C)C(=O)N[C@@H](CO)C(=O)N[C@@H](CO)C(=O)N[C@H](C(=O)N[C@@H](CCC(=O)O)C(=O)N[C@H](C(=O)NCC(=O)N[C@@H](CO)C(=O)N[C@@H](CC(N)=O)C(=O)N[C@H](C(=O)N1C[C@H](O)C[C@H]1C(N)=O)[C@@H](C)O)C(C)C)[C@@H](C)O)N(C)C(=O)[C@H](C)NC(=O)CN(C)C(=O)[C@H](Cc1ccccc1)NC(=O)[C@H](CO)NC(=O)[C@H](CO)NC(=O)[C@H](CCCNC(=N)N)NC(=O)[C@H](CC(N)=O)NC(=O)[C@H](CC(C)C)NC(=O)[C@H](Cc1ccccc1)NC(=O)[C@H](Cc1c[nH]cn1)NC(=O)[C@H](C)NC(=O)[C@H](CC(C)C)NC(=O)[C@H](CCCNC(=N)N)NC(=O)[C@H](CCC(=O)O)NC(=O)[C@@H](NC(=O)[C@H](C)NC(=O)[C@@H]1CSSC[C@H](NC(=O)[C@H](CCCNC(=N)N)NC(=O)CC[C@H](NC(=O)CCCCCCCCCCCCCCCCCCC(=O)O)C(=O)O)C(=O)NCC(=O)N[C@@H]([C@@H](C)O)C(=O)N[C@@H](C)C(=O)N[C@@H]([C@@H](C)O)C(=O)N1)[C@@H](C)O` is reported as 76.8 ± 1% (male Sprague-Dawley rats; subcutaneous, 30 nmol/kg single dose, 24 h; baseline: vehicle).
For `CC(CCC(=O)NCc1ccc(C(=O)NO)cc1)C1CCC2C3C(O)CC4CC(O)CCC4(C)C3CCC12C` (stereo not shown), the relative abundance was 14.7% (item: Glyco-conj; PCK rat (Pkhd1 mutant), bile; oral gavage, dose not given, 5 months; baseline: total bile acids).
With `COc1ccc(C2CC(Nc3ccc(-c4ccc(NC5=NN(C(C)=O)C(c6ccc(OC)cc6)C5)cc4)cc3)=NN2C(C)=O)cc1` (stereo not shown) the inhibition was 54.8% (carrageenan paw oedema; albino rat; oral, 50 mg/kg, 3 h; baseline: vehicle).
For `CN1CCC[C@]1(C)/C=C/S(=O)(=O)NC(=O)Nc1c2c(cc3c1CCC3)CCC2`, the IL-1β inhibition was 27.4% (human, whole blood ex vivo; 12.5 mg twice daily, day 14, 36 h, multiple ascending dose, with: LPS and ATP).
The GSH:GSSG ratio of `N[C@@H](CNC(=O)N[C@@H](CS)C(=O)NCC(=O)O)C(=O)O` is reported as 1.2 fold (mouse C57BL/6, Aβ i.c.v. model, brain homogenate; intranasal, dose not given; baseline: Aβ-only).
For `CC(C)=CCc1cc(C(=O)/C=C/c2ccc(O)cc2)c(O)cc1O`, the Vmax was 21.9 ± 1.12 pmol/min/mg (phase I metabolism; dog liver microsomes).
For `Cc1cccc(C)c1CNc1cc(C(=O)N2CCC2)cn2c(C)c(C)nc12`, the inhibition was 82.9% (esophageal lesions; rat reflux esophagitis model; oral, 1 mg/kg).
For `CCC(=O)N[C@@H](C)C(=O)OCC(=O)N[C@@H](C)C(=O)O`, “chain scission rate constant” read 0.0492 h⁻¹ (water; pH 7, 50 °C).
`CCOC(=O)C12CC(N)(C1)C2` — result for “tail flick latency”: 2.5 a.u. and 3.07 a.u. and 2.39 a.u. and 2.6 a.u. and 2.62 a.u. (CD-1 mouse female; subcutaneous, 6.5 mg/mouse, 0 min; higher = stronger analgesia).
`COc1ccc(C(=O)CCc2cc(C(CCc3ccc(O)cc3OC)c3ccc(O)cc3)c(O)cc2OC)cc1` (racemic) gave a 15-HETE level of 277 ± 100 pg/mL (human blood; 10 µM, with: A23187).
With `CC(=O)[O-].O.[Cu+2].[O-]c1ccc(Br)cc1C=NCCN1CCOCC1` the inhibition was 16.3% (superoxide scavenging; 80 µM).
`COC1CN([C@H]2CC[C@H]([C@@]3(C)Oc4c(Cl)cc(C(=O)NCc5c(SC)cc(C)[nH]c5=O)c(C)c4O3)CC2)C1` — result for “log2 fold change”: 2.7 (RNA-seq, item: SLC25A27; human, whole blood; dose not given, 24 h; baseline: pretreatment baseline).
`COc1cc(C2CC(Nc3ccc(-c4ccc(NC5=NN(C(C)=O)C(c6ccc(O)c(OC)c6)C5)cc4)cc3)=NN2C(C)=O)ccc1O` (stereo not shown) has an inhibition of 38.2% (carrageenan paw oedema; albino rat; oral, 50 mg/kg, 3 h).
With `COc1cc(O)ccc1CCC(c1ccc(O)cc1)c1cc2c(c(C)c1O)OC(c1ccc(O)cc1)CC2` (mixture of isomers) the 15-HETE level was 190 ± 44 pg/mL (human blood; 3 µM, with: A23187).
`COCC1CN(C2CCN(c3cc(OC)c(Nc4ncc(Br)c(Nc5ccc6c(c5P(C)(C)=O)OCCO6)n4)cc3C)CC2)C1`: “objective response rate” 16.7% (RECIST 1.1; advanced EGFR-mutant NSCLC patients; 150 mg once daily).

Some of these lines once more:
For `COc1ccc(C2CC(Nc3ccc(-c4ccc(NC5=NOC(c6ccc(OC)cc6)C5)cc4)cc3)=NO2)cc1` (stereo not shown), the inhibition was 27.8% (carrageenan paw oedema; albino rat; oral, 25 mg/kg, 3 h).
For `Cc1cccc(C)c1CNc1cc(C(=O)N2CCC2)cn2c(C)c(C)nc12`, the inhibition was 82.9% (esophageal lesions; rat reflux esophagitis model; oral, 1 mg/kg).
For `Cc1cnc2nc1Nc1cccc(c1)COC/C=C/COCc1cc(ccc1OCCN1CCOCC1)N2`, the reticulocytes was 11.2% and 11.4% and 11.9% and 10.4% and 9.57% (BALB/c mice rhEPO-induced polycythemia; 100 mg/kg).
For `COc1cc2c(NC3CCN(C(C)C)CC3)cc(N3CCOCC3)nc2cc1OCCCN1CCCC1`, “log2 fold change” read -0.0344 (TMT proteomics, item: YWHAZ; 5xFAD mice, hippocampus; dose not given; baseline: untreated 5xFAD mice).
